Experimental data collected from several papers.
Lines come from different studies, so protocols differ. ± gives the spread as reported.

Compound = COc1ccc(CCN2CCC[C@H](CN3CCc4cc(OC)c(OC)cc4CC3=O)C2)cc1OC; assay = VTA dopamine neurons; test system = CSDS-susceptible male mice; setting = intraperitoneal, 20 mg/kg; scale = baseline: baseline; quantity = firing rate; result = decreased
Compound = CCOP(=O)(OCC)OCCCCOC(=O)CC1=C(C)C(=Cc2ccc([S+](C)[O-])cc2)c2ccc(F)cc21 (stereo not shown); assay = GFP imaging; test system = BALB/c nude mice, orthotopic A549-GFP xenograft; setting = inhalation, 6.5 mg/kg five times weekly, 8 weeks; scale = baseline: control; quantity = tumour volume reduction; result = 75%
Compound = Cc1ccc(/C=C/C(=O)O)cc1-c1cc2c(cc1C)C(C)(C)CCC2(C)C; assay = RNA sequencing, item: Cyp26b1 mRNA; test system = rat, brain; setting = dose not given, 24 h, single dose; scale = baseline: vehicle; quantity = log2 fold change; result = 0.15
Compound = O=c1cc(-c2ccc(O)cc2)oc2c([C@@H]3OC[C@H](O)[C@H](O)[C@H]3O)c(O)c([C@@H]3O[C@H](CO)[C@@H](O)[C@H](O)[C@H]3O)c(O)c12; assay = ELISA, item: TNF-α, IL-6, IL-1β; test system = BALB/c mice, LPS acute lung injury; setting = oral gavage, 10 and 20 mg/kg, 8 h, with: LPS 2 mg/kg intranasal; quantity = serum cytokine levels; result = decreased
Compound = CC[C@H](C)[C@H](NC(=O)[C@@H](NC(=O)[C@H](CC(=O)O)NC(C)=O)[C@@H](C)O)C(=O)N[C@@H](CCCNC(=N)N)C(=O)N[C@@H](CC(C)C)C(=O)N[C@@H](CC(C)C)C(=O)N[C@@H](Cc1ccccc1)C(=O)N[C@@H](CCC(N)=O)C(=O)N[C@@H](CC(C)C)C(=O)N[C@@H](CCSC)C(=O)N[C@@H](CCCNC(=N)N)C(=O)N1CCC[C@H]1C(=O)N1CCC[C@H]1C(=O)N[C@@H](CC(N)=O)C(=O)N[C@@H](CCSC)C(=O)N[C@H](C(=O)N1CCC[C@H]1C(=O)N[C@@H](C)C(=O)N[C@H](C(=O)N[C@@H](CC(N)=O)C(=O)N[C@@H](C)C(N)=O)C(C)C)[C@@H](C)O; assay = item: HA-51 tetramer; test system = antigen-experienced tetramer+ CD4 T cells, healthy adults, HLA-DRB1*0101; setting = dose not given; quantity = α4β7− CCR9− cells; result = 5.88%
Compound = CC[C@H](C)[C@H](NC(=O)CNC(=O)[C@H](C)NC(=O)[C@@H]1CCCN1C(=O)CNC(=O)[C@H](C)NC(=O)[C@H](CCC(=O)O)NC(=O)[C@H](C)NC(=O)[C@H](CC(=O)O)NC(=O)[C@H](C)NC(=O)[C@H](CCC(=O)O)NC(=O)[C@H](C)NC(=O)[C@H](CCC(=O)O)NC(=O)[C@@H]1CCCN1C(=O)[C@H](CCC(=O)O)NC(=O)CNC(C)=O)C(=O)NCC(=O)N[C@@H](C)C(=O)N[C@H](C(=O)N[C@@H](CC(C)C)C(=O)N[C@@H](CCCCN)C(=O)N[C@H](C(=O)N[C@@H](CC(C)C)C(=O)N[C@H](C(=O)N[C@H](C(=O)NCC(=O)N[C@@H](CC(C)C)C(=O)N1CCC[C@H]1C(=O)N[C@@H](C)C(=O)N[C@@H](CC(C)C)C(=O)N[C@H](C(=O)N[C@@H](CO)C(=O)N[C@@H](Cc1c[nH]c2ccccc12)C(=O)N[C@H](C(=O)N[C@@H](CCCCN)C(=O)N[C@@H](CCCNC(=N)N)C(=O)N[C@@H](CCCCN)C(=O)N[C@@H](CCCNC(=N)N)C(=O)N[C@@H](CCC(N)=O)C(=O)N[C@@H](CCC(N)=O)C(N)=O)[C@@H](C)CC)[C@@H](C)CC)[C@@H](C)O)[C@@H](C)O)C(C)C)C(C)C; test system = MCF7 xenograft, nude mouse; setting = intratumoral, 250 nmol, 96 h; scale = baseline: tumour area; quantity = necrotic area; result = ~60%
Compound = CC[C@H](C)[C@H](NC(=O)[C@H](CCCNC(=N)N)NC(=O)[C@H](CCC(N)=O)NC(=O)[C@H](CC(=O)O)NC(=O)[C@H](CC(C)C)NC(=O)[C@H](CC(C)C)NC(=O)[C@H](CC(N)=O)NC(=O)[C@H](Cc1ccccc1)NC(=O)[C@H](CC(=O)O)NC(=O)[C@@H](NC(=O)[C@@H](NC(=O)[C@H](CC(N)=O)NC(=O)CNC(=O)[C@H](CO)NC(C)=O)C(C)C)[C@@H](C)CC)C(=O)N[C@H](C(=O)N[C@@H](Cc1c[nH]c2ccccc12)C(=O)N[C@@H](CCC(N)=O)C(=O)N[C@@H](CC(N)=O)C(=O)N[C@@H](Cc1c[nH]c2ccccc12)C(=O)N[C@@H](Cc1ccc(O)cc1)C(=O)N[C@@H](C)C(N)=O)[C@@H](C)CC; assay = item: HA-52 tetramer; test system = antigen-experienced tetramer+ CD4 T cells, healthy adults, HLA-DRB1*0101; setting = dose not given; quantity = α4β7+ CCR9+ cells; result = 11.1%
Compound = CCOC(=O)Nc1ccc2c(c1)CN1C(=S)N(c3ccc(C#N)c(C(F)(F)F)c3)C(=O)C1C2 (stereo not shown); test system = mouse, 22Rv1 orthotopic xenograft; setting = intravenous, 25 mg/kg/day; scale = baseline: vehicle; quantity = increase in apoptosis rate; result = 5 fold
Compound = Cc1cc(Nc2nc(C[C@@]3(C(=O)O)CCN(Cc4cccc(Cl)c4F)[C@H](C)C3)cc(C)c2F)[nH]n1; test system = mice, NCI-H69 xenograft; setting = oral, 20 mg/kg once daily; quantity = tumour growth inhibition; result = 99%
Compound = O=C(O)/C=C/c1cc(O)cc(O)c1; assay = DPPH radical scavenging; setting = 1000 µg/mL; quantity = inhibition; result = 85.2 ± 1.1%

Some of these lines once more:
Compound = CCOC(=O)Nc1ccc2c(c1)CN1C(=S)N(c3ccc(C#N)c(C(F)(F)F)c3)C(=O)C1C2 (stereo not shown); test system = mouse, 22Rv1 orthotopic xenograft; setting = intravenous, 25 mg/kg/day; scale = baseline: vehicle; quantity = increase in apoptosis rate; result = 5 fold
